Measurements from different studies.
Each line is one published result; not all experiments were run side by side.
B1: rasC Q62L/E157R (Dictyostelium discoideum, UniProt P32253); sequence looked up; chain MSKLLKLVIVGDGGVGKSALTIQLTQNQFIAEYDPTIENSYRKQVNIDEEVYMLDILDTAGLEEYSAMRDQYIRSGRGFLIVYSIISRASFEAVTTFREQILRVKDLSTYPIVIIGNKADLPDKDRKVPPMEGKELAKSFGAPFLETSAKSRVNVERAFFTLVREIKRWNQNPQNEEMLPPKKRGCIIL
B2: EIF5B 1076-1220 (Homo sapiens, UniProt O60841); sequence looked up; chain YKKQKQEEFKHIAVFPCKIKILPQYIFNSRDPIVMGVTVEAGQVKQGTPMCVPSKNFVDIGIVTSIEINHKQVDVAKKGQEVCVKIEPIPGESPKMFGRHFEATDILVSKISRQSIDALKDWFRDEMQKSDWQLIVELKKVFEII
B3: MDM4 23-111, p53-binding domain (Homo sapiens, UniProt O15151); chain GPLGSQINQVRPKLPLLKILHAAGAQGEMFTVKEVMHYLGQYIMVKQLYDQQEQHMVYCGGDLLGELLGRQSFSVKDPSPLYDMLRKNLVTLAT
B4: PTK2 1-370 (Homo sapiens, UniProt Q05397); sequence looked up; chain MAAAYLDPNLNHTPNSSTKTHLGTGMERSPGAMERVLKVFHYFESNSEPTTWASIIRHGDATDVRGIIQKIVDSHKVKHVACYGFRLSHLRSEEVHWLHVDMGVSSVREKYELAHPPEEWKYELRIRYLPKGFLNQFTEDKPTLNFFYQQVKSDYMLEIADQVDQEIALKLGCLEIRRSYWEMRGNALEKKSNYEVLEKDVGLKRFFPKSLLDSVKAKTLRKLIQQTFRQFANLNREESILKFFEILSPVYRFDKECFKCALGSSWIISVELAIGPEEGISYLTDKGCNPTHLADFTQVQTIQYSNSEDKDRKGMLQLKIAGAPEPLTVTAPSLTIAENMADLIDGYCRLVNGTSQSFIIRPQKEGERAL
B5: NFE2L2 155-220 (Homo sapiens, UniProt Q16236); chain GVFIATNQAQSPETSVAQVAPVDLDGMQQDIEQVWEELLSIPELQCLNIENDKLVETTMVPSPEAKL
B6: Secisbp2 399-846 x (Rattus norvegicus, UniProt Q9QX72); sequence looked up; chain EFPNLSVASERRHRGESPKLQSKQQAQNDFKTGGKKSQVPVQLDAAAAAAALEKQQHAPHAKPSSRPVVFSVGAVPVLSKDASSGERGRRSSQVKTPHNPLDSSAPLMKKGKQREIPKAKKPTSLKKIILKERQERMQQRLQESAVSPTVASDDSQDVESGVTNQIPSPDNPTGPEKTEEPMSSTPVVEGESEEPAGTEFQRDPEACQPAPDSATFPKIHSRRFRDYCSQMLSKEVDACVTGLLKELVRFQDRMYQKDPVKAKTKRRLVLGLREVLKHLKLRKLKCIIISPNCEKTQSKGGLDDTLHTIIDCACEQNIPFVFALNRKALGRSLNKAVPVSIVGIFSYDGAQDQFHKMVELTMAARQAYKTMLETMRQEQAGEPGPQTPPSPPMQDPIQSTDEGTLASTGEEPHYIEIWRKHLEAYSQHALELEDSLEASTSQMMNLNL
B7: ktrA (Bacillus subtilis, UniProt O32080); sequence looked up; chain MGRIKNKQFAVIGLGRFGGSICKELHRMGHEVLAVDINEEKVNAYASYATHAVIANATEENELLSLGIRNFEYVIVAIGANIQASTLTTLLLKELDIPNIWVKAQNYYHHKVLEKIGADRIIHPEKDMGVKIAQSLSDENVLNYIDLSDEYSIVELLATRKLDSKSIIDLNVRAKYGCTILAIKHHGDICLSPAPEDIIREQDCLVIMGHKKDIKRFENEGM
B8: KAT7 474-611 (Homo sapiens, UniProt O95251); sequence looked up; chain CILTMPQYMRQGYGKMLIDFSYLLSKVEEKVGSPERPLSDLGLISYRSYWKEVLLRYLHNFQGKEISIKEISQETAVNPVDIVSTLQALQMLKYWKGKHLVLKRQDLIDEWIAKEAKRSNSNKTMDPSCLKWTPPKGT
B9: SIS1 residues 1-81 (Saccharomyces cerevisiae, UniProt P25294); chain SMVKETKLYDLLGVSPSANEQELKKGYRKAALKYHPDKPTGDTEKFKEISEAFEILNDPQKREIYDQYGLEAARSGGPSFGP
B10: pob3 (Schizosaccharomyces pombe, UniProt O94529); chain MAAKTVQYDNIYLNLSEKPGKLRIAPSGLGWKSPSLAEPFTLPISEIRRFCWSRFARGYELKIILKSKDPVSLDGFSQEDLDDLINVIKQNFDMGIEQKEFSIKGWNWGEANFLGSELVFDVNSRPAFEIPISAVTNTNLSGKNEVALEFSTTDDKQIPSAQVDELVEMRLYVPGTTAKEDAADGEEVEQNAANLFYESLKERADIGQAAGDAIVSFSEILLLTPRGRYDIDMYETCMRLRGKTYDYKVEYSSINSLFLLPKPDEQHVVFVIGLEPPLRQGQTRYPFLVTQFVRDEDMEVDLNIEETVLKEKYADKVKASYDQPAFEVVSQIFRGLTGRKVTTPAEFLSHEGHAAVKCSYKANEGQLYCLDKSFLFIPKPTLLMNTSDITRVTLSRVGMSVSAARTFDLTFTLRSGTSYQFSNINRVEQSALVAFLESKQIKIHNDLADETQQTLLTSALDDEDEEGDEEMEEALSEDEDFQAESESDVAEEYDENAESSDEEGASGAEGSE
B11: PSMG4 1-123 (Homo sapiens, UniProt Q5JS54); chain MEGLVVAAGGDVSLHNFSARLWEQLVHFHVMRLTDSLFLWVGATPHLRNLAVAMCSRYDSIPVSTSLLGDTSDTTSTGLAQRLARKTNKQVFVSYNLQNTDSNFALLVENRIKEEMEAFPEKF
B12: EFR3A 721-791 F728A (Homo sapiens, UniProt Q14156); chain SNTEEITAEALKKAIDTSGMEEQEKEKRRLVIEKFQKAPFEEIAAQCESKANLLHDRLAQILELTIRPPPS
B13: lpxC 1-305 (Escherichia coli, UniProt P0A725); chain MIKQRTLKRIVQATGVGLHTGKKVTLTLRPAPANTGVIYRRTDLNPPVDFPADAKSVRDTMLCTCLVNEHDVRISTVEHLNAALAGLGIDNIVIEVNAPEIPIMDGSAAPFVYLLLDAGIDELNCAKKFVRIKETVRVEDGDKWAEFKPYNGFSLDFTIDFNHPAIDSSNQRYAMNFSADAFMRQISRARTFGFMRDIEYLQSRGLCLGGSFDCAIVVDDYRVLNEDGLRFEDEFVRHKMLDAIGDLFMCGHNIIGAFTAYKSGHALNNKLLQAVLAKQEAWEYVTFQDDAELPLAFKAPSAVLA
B14: dnaG P16 domain 453-597 (Geobacillus stearothermophilus, UniProt Q9X4D0); sequence looked up; chain AKKLLPAFQNAERLLLAHMMRSRDVALVVQERIGGRFNIEEHRALAAYIYAFYEEGHEADPGALISRIPGELQPLASDVSLLLIADDVSEQELEDYIRHVLNRPKWLMLKVKEQEKTEAERRKDFLTAARIAKEMIEMKKMLSSS
UniProt P61823, sequence (whole entry, unmodified, looked up): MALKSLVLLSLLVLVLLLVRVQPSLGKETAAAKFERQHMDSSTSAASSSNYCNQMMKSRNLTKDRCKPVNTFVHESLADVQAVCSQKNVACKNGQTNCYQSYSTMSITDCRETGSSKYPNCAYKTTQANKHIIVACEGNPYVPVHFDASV
UniProt P55010, sequence (whole entry, looked up): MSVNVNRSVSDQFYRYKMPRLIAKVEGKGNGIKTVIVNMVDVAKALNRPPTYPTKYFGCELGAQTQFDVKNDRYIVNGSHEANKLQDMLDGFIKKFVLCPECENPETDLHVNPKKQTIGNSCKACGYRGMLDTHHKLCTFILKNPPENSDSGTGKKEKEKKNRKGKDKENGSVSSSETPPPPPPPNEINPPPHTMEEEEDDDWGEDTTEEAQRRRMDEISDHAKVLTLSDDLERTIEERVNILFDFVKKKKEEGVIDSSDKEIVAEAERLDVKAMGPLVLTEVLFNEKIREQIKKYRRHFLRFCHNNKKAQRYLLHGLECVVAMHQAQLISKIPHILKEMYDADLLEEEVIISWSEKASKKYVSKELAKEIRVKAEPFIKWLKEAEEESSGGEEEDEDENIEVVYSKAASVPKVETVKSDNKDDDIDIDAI
UniProt Q9NVU0, sequence (whole entry, looked up): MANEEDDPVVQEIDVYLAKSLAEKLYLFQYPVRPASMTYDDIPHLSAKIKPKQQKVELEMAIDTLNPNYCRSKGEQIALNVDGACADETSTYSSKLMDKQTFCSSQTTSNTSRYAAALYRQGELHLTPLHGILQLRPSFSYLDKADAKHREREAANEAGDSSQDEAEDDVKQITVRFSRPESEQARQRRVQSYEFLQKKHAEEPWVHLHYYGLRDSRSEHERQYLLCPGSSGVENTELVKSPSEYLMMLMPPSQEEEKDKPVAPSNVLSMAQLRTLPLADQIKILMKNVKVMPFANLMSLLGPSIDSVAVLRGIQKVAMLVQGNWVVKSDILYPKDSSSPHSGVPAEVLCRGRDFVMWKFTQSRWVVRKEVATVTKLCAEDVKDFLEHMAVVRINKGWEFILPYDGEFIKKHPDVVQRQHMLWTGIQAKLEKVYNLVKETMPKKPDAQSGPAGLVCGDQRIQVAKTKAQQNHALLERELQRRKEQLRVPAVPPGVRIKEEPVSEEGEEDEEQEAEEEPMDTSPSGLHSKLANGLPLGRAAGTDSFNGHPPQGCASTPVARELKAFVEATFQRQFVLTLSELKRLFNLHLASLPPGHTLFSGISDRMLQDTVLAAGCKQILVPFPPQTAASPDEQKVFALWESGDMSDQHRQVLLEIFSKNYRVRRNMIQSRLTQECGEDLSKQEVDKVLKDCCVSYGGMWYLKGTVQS
UniProt O32081, sequence (whole entry, looked up): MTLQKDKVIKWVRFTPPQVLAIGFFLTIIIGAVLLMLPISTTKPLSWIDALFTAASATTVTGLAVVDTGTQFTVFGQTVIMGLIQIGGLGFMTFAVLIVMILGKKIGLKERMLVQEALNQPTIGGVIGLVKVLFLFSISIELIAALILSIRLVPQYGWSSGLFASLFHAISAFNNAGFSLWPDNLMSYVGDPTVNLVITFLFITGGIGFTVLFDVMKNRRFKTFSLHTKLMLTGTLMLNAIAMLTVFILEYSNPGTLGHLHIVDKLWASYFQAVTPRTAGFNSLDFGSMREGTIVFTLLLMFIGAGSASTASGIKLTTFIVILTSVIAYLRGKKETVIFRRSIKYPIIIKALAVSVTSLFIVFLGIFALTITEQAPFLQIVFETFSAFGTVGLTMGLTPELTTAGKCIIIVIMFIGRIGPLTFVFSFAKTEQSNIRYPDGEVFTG
UniProt Q92769, sequence (whole entry, looked up): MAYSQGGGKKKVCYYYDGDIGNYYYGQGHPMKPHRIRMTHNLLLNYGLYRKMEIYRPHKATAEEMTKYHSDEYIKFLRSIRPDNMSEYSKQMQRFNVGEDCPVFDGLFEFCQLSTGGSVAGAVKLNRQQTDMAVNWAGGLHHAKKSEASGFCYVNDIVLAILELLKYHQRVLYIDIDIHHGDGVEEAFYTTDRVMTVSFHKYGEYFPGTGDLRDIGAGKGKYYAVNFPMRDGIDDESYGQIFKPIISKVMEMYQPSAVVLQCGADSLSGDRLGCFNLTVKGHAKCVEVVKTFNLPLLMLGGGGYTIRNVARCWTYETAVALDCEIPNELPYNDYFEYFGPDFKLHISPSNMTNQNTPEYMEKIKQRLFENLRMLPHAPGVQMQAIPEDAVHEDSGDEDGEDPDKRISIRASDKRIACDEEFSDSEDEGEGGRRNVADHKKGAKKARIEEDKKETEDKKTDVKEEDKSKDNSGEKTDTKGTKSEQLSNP
UniProt O14497, sequence (whole entry, looked up): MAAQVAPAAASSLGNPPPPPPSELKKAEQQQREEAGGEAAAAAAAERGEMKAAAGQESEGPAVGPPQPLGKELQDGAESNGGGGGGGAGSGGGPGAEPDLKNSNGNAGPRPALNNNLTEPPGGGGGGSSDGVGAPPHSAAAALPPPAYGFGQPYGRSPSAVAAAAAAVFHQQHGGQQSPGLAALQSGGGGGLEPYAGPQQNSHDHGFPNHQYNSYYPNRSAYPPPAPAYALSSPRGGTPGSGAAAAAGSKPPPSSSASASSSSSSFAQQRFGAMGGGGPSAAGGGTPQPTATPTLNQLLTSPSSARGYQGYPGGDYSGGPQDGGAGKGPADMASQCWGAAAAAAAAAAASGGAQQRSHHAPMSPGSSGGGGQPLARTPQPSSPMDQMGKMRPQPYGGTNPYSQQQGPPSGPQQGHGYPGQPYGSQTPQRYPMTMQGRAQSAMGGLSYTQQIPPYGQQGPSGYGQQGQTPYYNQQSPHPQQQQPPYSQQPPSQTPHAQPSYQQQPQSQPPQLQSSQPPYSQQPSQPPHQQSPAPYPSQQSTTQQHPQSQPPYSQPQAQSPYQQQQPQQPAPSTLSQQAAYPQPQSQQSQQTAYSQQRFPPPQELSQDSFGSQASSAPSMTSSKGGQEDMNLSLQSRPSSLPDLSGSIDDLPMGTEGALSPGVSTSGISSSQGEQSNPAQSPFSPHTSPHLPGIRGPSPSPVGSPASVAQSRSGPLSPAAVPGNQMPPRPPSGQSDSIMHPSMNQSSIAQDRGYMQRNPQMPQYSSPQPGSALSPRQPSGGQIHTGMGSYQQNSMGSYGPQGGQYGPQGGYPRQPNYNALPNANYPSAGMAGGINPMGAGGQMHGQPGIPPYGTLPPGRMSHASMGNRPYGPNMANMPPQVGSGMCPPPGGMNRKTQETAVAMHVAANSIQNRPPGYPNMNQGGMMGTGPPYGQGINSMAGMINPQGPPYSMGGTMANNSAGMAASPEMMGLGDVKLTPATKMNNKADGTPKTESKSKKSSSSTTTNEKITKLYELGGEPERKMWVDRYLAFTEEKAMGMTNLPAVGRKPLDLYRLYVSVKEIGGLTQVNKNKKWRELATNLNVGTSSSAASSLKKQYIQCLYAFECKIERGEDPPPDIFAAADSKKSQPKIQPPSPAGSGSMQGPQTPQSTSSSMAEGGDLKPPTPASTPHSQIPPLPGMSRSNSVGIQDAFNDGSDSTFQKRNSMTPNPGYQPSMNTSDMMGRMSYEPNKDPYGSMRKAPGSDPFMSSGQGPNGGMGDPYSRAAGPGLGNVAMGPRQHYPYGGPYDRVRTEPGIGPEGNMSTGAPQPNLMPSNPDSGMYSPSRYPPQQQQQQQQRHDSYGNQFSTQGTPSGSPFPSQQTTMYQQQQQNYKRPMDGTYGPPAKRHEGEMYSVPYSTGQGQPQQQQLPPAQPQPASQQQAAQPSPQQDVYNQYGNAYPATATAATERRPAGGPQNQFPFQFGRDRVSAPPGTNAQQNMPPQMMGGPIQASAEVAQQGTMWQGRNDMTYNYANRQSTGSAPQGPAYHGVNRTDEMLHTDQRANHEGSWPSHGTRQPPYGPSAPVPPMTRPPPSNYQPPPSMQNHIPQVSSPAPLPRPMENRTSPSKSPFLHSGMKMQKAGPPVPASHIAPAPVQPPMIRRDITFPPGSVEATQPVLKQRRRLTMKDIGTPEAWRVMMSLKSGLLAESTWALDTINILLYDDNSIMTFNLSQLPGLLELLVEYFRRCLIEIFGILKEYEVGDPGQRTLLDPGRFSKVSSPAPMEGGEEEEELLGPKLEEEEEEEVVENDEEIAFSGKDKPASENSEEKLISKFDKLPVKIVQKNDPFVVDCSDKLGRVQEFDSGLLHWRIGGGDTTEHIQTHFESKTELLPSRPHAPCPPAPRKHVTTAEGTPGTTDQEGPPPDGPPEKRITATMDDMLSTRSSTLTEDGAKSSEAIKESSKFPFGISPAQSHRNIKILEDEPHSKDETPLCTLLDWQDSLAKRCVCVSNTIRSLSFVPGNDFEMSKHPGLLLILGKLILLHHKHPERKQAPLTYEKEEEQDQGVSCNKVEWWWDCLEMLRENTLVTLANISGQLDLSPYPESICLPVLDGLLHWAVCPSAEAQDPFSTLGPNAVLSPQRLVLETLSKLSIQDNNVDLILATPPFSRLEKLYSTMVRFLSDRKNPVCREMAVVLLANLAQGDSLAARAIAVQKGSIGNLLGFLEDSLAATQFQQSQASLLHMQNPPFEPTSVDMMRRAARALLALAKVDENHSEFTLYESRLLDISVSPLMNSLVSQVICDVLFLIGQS
UniProt P23769, sequence (whole entry, looked up): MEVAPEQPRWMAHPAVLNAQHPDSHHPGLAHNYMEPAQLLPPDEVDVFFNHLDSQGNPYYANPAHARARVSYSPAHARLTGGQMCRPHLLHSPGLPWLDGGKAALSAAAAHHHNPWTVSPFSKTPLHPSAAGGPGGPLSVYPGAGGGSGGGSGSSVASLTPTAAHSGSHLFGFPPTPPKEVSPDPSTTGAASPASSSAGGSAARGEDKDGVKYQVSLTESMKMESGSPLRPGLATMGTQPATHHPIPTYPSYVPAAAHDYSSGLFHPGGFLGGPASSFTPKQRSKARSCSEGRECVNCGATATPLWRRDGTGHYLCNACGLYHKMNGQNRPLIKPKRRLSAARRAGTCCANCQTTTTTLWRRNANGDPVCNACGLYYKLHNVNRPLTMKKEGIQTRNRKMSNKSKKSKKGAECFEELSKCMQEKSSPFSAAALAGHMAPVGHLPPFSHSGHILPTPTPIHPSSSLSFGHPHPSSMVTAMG

Molecule	tested on	test	system	setting	how to read	quantity	result
B1 (rasC Q62L/E157R)	racE T25N/S192D/R186E (Dictyostelium discoideum)	pull-down	–	–	–	binding	binds
KETCAAKFERQHMDS (RNASE1 S-peptide 27-41 A4C (Bos taurus, UniProt P61823); Cys4 NTB mixed disulfide; sequence looked up)	RNASE1 47-150 V118C (Bos taurus, UniProt P61823)	disulfide cross-linking	peptide	–	–	binding	binds
B2 (EIF5B 1076-1220)	EIF5 232-431 (Homo sapiens, UniProt P55010)	NMR titration	–	–	–	binding	binds
GATA2 (Homo sapiens, UniProt P23769)	ARID1A 1111-1634 (Homo sapiens, UniProt O14497)	bead binding, confocal imaging	–	–	–	binding	binds
B3	MDM4 170-260 (Homo sapiens, UniProt O15151)	NMR titration	–	–	–	binding	binds
B4 (PTK2 1-370)	PRKCQ (Homo sapiens, UniProt Q04759)	pull-down	–	–	–	binding	binds
B5 (NFE2L2 155-220)	EP300 TAZ2 1723-1812 x (Homo sapiens, UniProt Q09472)	circular dichroism	–	–	–	binding	binds
B6 (Secisbp2 399-846 x)	Eefsec (Mus musculus, UniProt Q9JHW4)	EMSA	–	–	–	binding	binds
CRYAA F71L (Homo sapiens) (sequence not shown)	CRYAB (Homo sapiens, UniProt P02511)	co-IP	–	–	–	binding	binds
VMRLQSETSV	human MAGI1-2/6 PDZ construct (MBP fusion)	automated holdup	peptide, purified PDZ protein	concentration not given, unit not given	reference: biotin control resin, higher = stronger binding	binding intensity	0.247
ENEEDILVVTTQG (CALCOCO2 128-140 (Homo sapiens); N-terminal FITC, phosphothreonine)	RB1CC1 1490-1594 (Homo sapiens, UniProt Q8TDY2)	fluorescence polarisation	peptide	–	–	binding	binds
CKVTRRPKASDYQRL (TGOLN1 YxxΦ peptide)	AP2A2/AP2B1/AP2M1/AP2S1 core, lacking appendage domains (Mus musculus)	cryo-EM	peptide	–	–	binding	binds
B7 (ktrA)	ktrB 1-445 (Bacillus subtilis, UniProt O32081)	SEC	–	–	–	binding	binds
POLR3E (Homo sapiens, UniProt Q9NVU0)	SNAPC4 (Homo sapiens, UniProt Q5SXM2)	cryo-EM	–	–	–	binding	binds
SKKNNAASELANAYSSYVSQIRKHKRVSPNAAPR (Nup60 285-318 P297A (Saccharomyces cerevisiae, UniProt P39705); sequence looked up)	NUP85/SEH1 Nup85 1-564 (Saccharomyces cerevisiae)	pull-down	peptide	–	–	binding	binds
SNEWLLPRSPYK (engineered peptide)	EPHB2 19-543 (Homo sapiens, UniProt P29323)	SPR	peptide	–	–	binding	binds
B8 (KAT7 474-611)	HDAC2 (Homo sapiens, UniProt Q92769)	pull-down	–	–	–	binding	binds
STVQLIMQL	HLA class I histocompatibility antigen, A alpha chain, allele A*01:01 (Homo sapiens, UniProt P04439)	conformational ELISA	peptide	concentration not given	reference: positive control peptide, direction not given	binding score	0.5%
GSGAGKETYY	human MAGI1-2/6 PDZ construct (MBP fusion)	automated holdup	peptide, crude extract	concentration not given, uncorrected, unit not given	reference: biotin control resin, higher = stronger binding	binding intensity	0.0715
B9 (SIS1 residues 1-81)	SSA1 T201A (Saccharomyces cerevisiae, UniProt P10591)	NMR titration	–	together with: ATP	–	binding	binds
B10 (pob3)	spt16 (Schizosaccharomyces pombe, UniProt O94267)	native gel	–	–	–	binding	binds
B11 (PSMG4 1-123)	POMP (Homo sapiens, UniProt Q9Y244)	cryo-EM	–	–	–	binding	binds
Peginesatide	UT7/EPO	phosphorylation, agonist, measured: phospho-GSK-3β	–	10 min	–	EC50	745 pM
B12 (EFR3A 721-791 F728A)	TTC7B/FAM126A FAM126A 1-308 (Homo sapiens)	BLI	–	–	–	binding	binds
IMQLMPFGC	HLA class I histocompatibility antigen, A alpha chain, allele A*02:01 (Homo sapiens, UniProt P04439)	conformational ELISA	peptide	concentration not given	reference: positive control peptide, direction not given	binding score	62.7%
B13 (lpxC 1-305)	lapB 21-389 (Escherichia coli, UniProt P0AB58)	pull-down	–	–	–	binding	binds
B14 (dnaG P16 domain 453-597)	dnaB I125A (Geobacillus stearothermophilus, UniProt Q9X4C9)	NMR titration	–	–	–	binding	binds

A few entries again:
Molecule	tested on	test	system	setting	how to read	quantity	result
GATA2 (Homo sapiens, UniProt P23769)	ARID1A 1111-1634 (Homo sapiens, UniProt O14497)	bead binding, confocal imaging	–	–	–	binding	binds
B3	MDM4 170-260 (Homo sapiens, UniProt O15151)	NMR titration	–	–	–	binding	binds
